Experimental data gathered from unrelated publications.
A part holds a random share of what one study measured. Substitutions count along the parent as printed.

Set 1
Target: Sal-like protein 4, full length isoform B (SALL4, Homo sapiens, UniProt Q9UJQ4-2, residues 1-616)
Technique: universal PBM
Molecule type: double-stranded DNA, one strand shown
Matrix: in vitro
Tested at: not given
Notes: 8-mer, flanks averaged, mean of replicates
Reading: higher = stronger binding
| Sequence | E-score |
| --- | --- |
| AACACCCC | -0.0546 |
| ACAAATCG | -0.0549 |
| ATTAACAG | 0.154 |
| CACAGGAC | -0.117 |
| TCTAGTCA | 0.1 |
| GGCAGAGA | -0.146 |
| CCGGATGC | -0.353 |
| CAACCGGC | -0.265 |

Set 2
Target: Hepatocyte nuclear factor 3-alpha (Foxa1, Mus musculus, UniProt P35582, residues 1-468, full length assumed)
UniProt P35582, sequence (whole entry, looked up): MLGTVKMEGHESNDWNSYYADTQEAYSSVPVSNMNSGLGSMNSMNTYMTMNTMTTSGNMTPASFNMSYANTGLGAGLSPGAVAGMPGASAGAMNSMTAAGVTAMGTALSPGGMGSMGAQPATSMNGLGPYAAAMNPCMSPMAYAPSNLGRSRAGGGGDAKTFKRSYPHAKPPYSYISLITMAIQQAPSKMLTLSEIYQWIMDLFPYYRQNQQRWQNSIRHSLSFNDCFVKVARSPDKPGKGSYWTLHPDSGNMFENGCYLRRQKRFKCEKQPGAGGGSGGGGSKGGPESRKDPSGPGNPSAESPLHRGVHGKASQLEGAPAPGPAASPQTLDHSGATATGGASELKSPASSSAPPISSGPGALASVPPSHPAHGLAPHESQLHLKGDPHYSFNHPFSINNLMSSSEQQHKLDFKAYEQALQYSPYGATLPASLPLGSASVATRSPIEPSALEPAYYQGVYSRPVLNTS
Technique: EMSA with sequencing
Molecule type: double-stranded DNA, one strand shown
Matrix: in vitro
Tested at: 10 and 20 nM
Notes: whole designed probe, mean of two concentrations, ends assumed
Baseline: negative control set to 0
Reading: higher = stronger binding
All sequences stand within: GTGAGCGGTGCCCATTGATGGGGAAC … TTTCACTGGGATCGTGGGGAC
| Sequence | normalised bound fraction [ratio] |
| --- | --- |
| AGATTCCAGCCAGCAGAATAGGAATTTCAGAATACGATAAGGAGATGTTAAGGAAGGTCAGGCAGTAAAAAGAGGTTTGCTGACTCATGTGGTTTGTTGACTTAGCAAGTCAGGGAGAAGTCAATTGTTTGCTCTCCTGTTTTACAGTCTTTAGGTGTGGGCCAGCCCAGGGCCATTGATAGTCATTTTAGCC | 0.464 |
| TCCTGCTTCTGTTGGCTGTTTCTTCTCTTTGGAGGGGGTCCCATTTCCCCACCTCTTTGCATACGCTGTAATGTTTTGTTGGATACTGCATGTAGATTATTTAGAGCAGCAGTTCAGACTGAAGTAGGAGCTGTCATCCTGGAGGGGCTCCCTGCCTGTGTTGGGCATGTGGGGGGCTGCTCAGCCAGATCCA | -0.0621 |
| ATCTTCCCCCTCTTCCTTGCCCCACCAGCTCACCTTCCCGGGTTATTTGCAGATAGGAAAAGAATAAAATCCGGCATTCGTTAACCCTCTTCTGGCGCAAACTGCTGTTTGCTCTGGATGAATCATGGTCCTTTGGCGACGCCAGGCTCCGGGAGAGCAAAGCACCGTGTCAGGGCCATGATCCGGGGTGGCC | 0.135 |
| ATCTTCCCCCTCTTCCTTGCCCCACCAGCTCACCTTCCCGGGTTATTTGCACAAAGGAAAATAAATAAAGCCGGCATTCGTTAACCCTCTTCTGGCGCAAACTGCTGTTTGCTCTGCATGAATCATGGTCCTTACGCGACGCCAGGCTCCGGGAGAGCAAAGCACCGTGTCAGGCGCATGATCCGGGCTCGCC | 0.371 |
| GGCCATAAATACATATTCATATACATTTGACTAAATGCCACATATGCTTTAACATTTTCTTTTAAGAAAATGTAACACTTTGAAGATTCAGTGTAATCTTCCAAATAGTAAACTAAATGATTTCCTTAGCTCCTTGACATATCCTAGAGTATCTATTTTAGTTTATAAATATGATTTTAAAAAATTAGGTACA | 0.0594 |
| TCCTGGCAGCACAAACGACTGAATAACAATTAAACAAAACAGGACAGTCTCCGTGTTTCAAAATGCGCATTTAAACCTAAAAGAAACACGGTGAGATTACTTTCTGAGCCTGGCCTTCCCTGGGTGCACAGTGAGCCACTTCTGAAAGCGTATGGGCACACCCGCTACAGAAACCAGCTTACACTGGCTCGGT | 0.0273 |
| AATGGGCTCCTGGGAACAGAAGCAACAGCTGCGTGGAGGGTGAGGACAAGCTGACATTTAGAAATATTCTGGTCAAGAGTTCCAATTGGTGTTAGATTGCTGAGGGCGCTGGTGTGAAGCCCGGCTGAGTCATGAGGTTGGACAGACAGTCCAGGAGCGGCTGAGTAAGGCAAGGTGGGGAAGGGCACATGCT | -0.0757 |
| CAAGTTTGTGGTCCAGGAGCAACAGGTTATGCCATACAGCCTAGGTGTGTAGTAGGCTACACACCGTCTATGTTTGTGTTGTACACTCTTTGTGCAAACATTGTTGATGAAACCATGACTCATTCTTCTCAGAACATACCCCTGTTGTTAAGCGATACATGACTGTACTTTTTTTAAAAAGTCCAAGGATATA | 0.409 |

Set 3
Target: CREB5, bZIP domain (human)
Technique: DHFR protein complementation
Matrix: yeast
Notes: single substitutions, most at no-binding floor
Baseline: wild-type JUN-FOS pair
Reading: higher = stronger binding
Parent: JUN, bZIP domain (human); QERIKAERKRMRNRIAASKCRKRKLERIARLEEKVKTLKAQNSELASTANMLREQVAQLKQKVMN; partner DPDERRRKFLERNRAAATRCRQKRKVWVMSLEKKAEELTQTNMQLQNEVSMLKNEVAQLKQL
| Substitution | binding fitness [natural log] |
| --- | --- |
| E44S | -0.457 |
| A57H | -0.368 |
| A46C | -0.438 |
| R30E | -0.0838 |
| T37C | -0.242 |
| K39W | -0.758 |
| A57Q | -0.39 |
| A29T | -0.333 |

Further values, each from its own experiment
| Molecule | target | effect on | molecule type | reading | measurement | value |
| --- | --- | --- | --- | --- | --- | --- |
| CSDSDGLAP | HLA class I histocompatibility antigen, A alpha chain, allele A*80:01 (Homo sapiens, UniProt P04439) | peptide-MHC binding | peptide | direction not given | z-score of log IC50 | 0.38 |

For quick reference, copied from above (set 3):
| Substitution | binding fitness [natural log] |
| --- | --- |
| T37C | -0.242 |
